Assay results from different studies.
Parts stem from different laboratories: compare values within a part only.

Set 1 — method: universal PBM; form: double-stranded DNA, one strand shown; matrix: in vitro; concentration: 600 nM; reading: higher = stronger binding
Target: Sal-like protein 4, full length isoform A (SALL4, Homo sapiens, UniProt Q9UJQ4, residues 1-1053)
UniProt Q9UJQ4, sequence (whole entry, looked up): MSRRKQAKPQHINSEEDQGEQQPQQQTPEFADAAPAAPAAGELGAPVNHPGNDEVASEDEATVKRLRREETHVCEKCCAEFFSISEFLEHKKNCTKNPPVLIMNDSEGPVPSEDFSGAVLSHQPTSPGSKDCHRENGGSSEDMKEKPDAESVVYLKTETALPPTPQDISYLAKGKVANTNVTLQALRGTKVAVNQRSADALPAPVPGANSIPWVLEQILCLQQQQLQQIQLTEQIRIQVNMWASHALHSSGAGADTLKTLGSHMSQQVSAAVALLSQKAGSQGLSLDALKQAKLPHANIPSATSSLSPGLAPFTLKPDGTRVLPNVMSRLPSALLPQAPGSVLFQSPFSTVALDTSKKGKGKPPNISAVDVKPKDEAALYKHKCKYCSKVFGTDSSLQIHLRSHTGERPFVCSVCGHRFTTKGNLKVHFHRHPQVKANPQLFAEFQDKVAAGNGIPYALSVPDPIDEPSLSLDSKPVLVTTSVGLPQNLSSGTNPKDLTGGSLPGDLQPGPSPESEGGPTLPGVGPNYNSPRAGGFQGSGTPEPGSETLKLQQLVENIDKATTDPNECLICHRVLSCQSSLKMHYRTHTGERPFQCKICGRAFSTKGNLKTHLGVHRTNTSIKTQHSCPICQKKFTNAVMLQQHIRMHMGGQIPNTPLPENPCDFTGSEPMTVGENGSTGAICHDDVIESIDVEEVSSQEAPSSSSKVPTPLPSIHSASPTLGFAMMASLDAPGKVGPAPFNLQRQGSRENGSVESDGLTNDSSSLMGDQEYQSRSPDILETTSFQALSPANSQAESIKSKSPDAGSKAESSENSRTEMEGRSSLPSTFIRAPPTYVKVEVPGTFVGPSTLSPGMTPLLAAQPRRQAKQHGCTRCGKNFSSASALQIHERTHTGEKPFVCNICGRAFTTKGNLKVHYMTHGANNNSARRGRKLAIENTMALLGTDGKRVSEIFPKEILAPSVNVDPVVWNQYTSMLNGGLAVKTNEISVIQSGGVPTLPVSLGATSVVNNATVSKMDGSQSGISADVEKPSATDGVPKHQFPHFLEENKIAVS
Notes: 8-mer, flanks averaged, mean of replicates
Oligonucleotide | E-score
CATGCCGA | 0.0102
CTCATGGC | -0.178
CTTGGAGA | -0.0482
ACCACTTA | 0.00747
ATAGTGCC | -0.0746
CATCGCGA | -0.0963

Set 2 — method: protein-binding microarray; form: double-stranded DNA, one strand shown; matrix: in vitro; concentration: 940 nM top; notes: 60-bp whole probe; with: salmon DNA 0.4 mg/ml; relative to: random background probes; reading: higher = stronger binding; constant ends, left off below: GCCTAGCAC … GTCTTGATTCGCTTGACGCTGCTG
Target: Interferon regulatory factor 5, full length, phosphomimetic (IRF5, Homo sapiens, UniProt Q13568-2, residues 1-514, S451D/S453D/S456D/S462D)
Oligonucleotide | fitted relative affinity
TTAGGACTGGACTTTCGGTGAGTGCTA | 1.31 z-score
TTCTGATCCATTTTGGTTTTGTGCTAG | 0.418 z-score
TCATACATGGGTATAGAACTGTGCTAG | -0.222 z-score
TTAGGACTGCTTTTCCCTTAGTGCTAG | -0.105 z-score
GACGGTATCGACTTGCGGGACGTGCTA | 4.46 z-score
TTAGGTTCTGGTTTCGGTTAGTGCTAG | 8.83 z-score
TTAGGACTTCTTATCCTTTAGTGCTAG | 0.343 z-score
TTGGGTATCGGGTATCGGTTAGTGCTA | 6.72 z-score

Set 3 — method: protein binding microarray; form: double-stranded DNA, one strand shown; matrix: in vitro; concentration: not given; relative to: not given; reading: higher = stronger binding
Target: Histone acetyltransferase KAT6A, winged helix 1, GST fusion (KAT6A, Homo sapiens, UniProt Q92794, residues 1-85)
Notes: 8-mer, flanks averaged, mean of 2 arrays, mostly near background
Target sequence (chain): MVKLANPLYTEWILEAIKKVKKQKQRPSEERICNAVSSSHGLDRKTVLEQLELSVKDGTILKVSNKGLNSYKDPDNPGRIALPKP
Oligonucleotide | E-score
AAGGCTGG | -0.235
ACTTCCAG | -0.206
CTAGGCTA | 0.0929
ACTCTAGA | -0.241
CAGTTATG | -0.23
AAATGTTG | -0.0695

Single results of other studies
Substance | target | assay | test system | setting | how to read | quantity | value
PhoQ, residues 284 288 289 292 302 303 AGCYAI | PhoP, residues 12 14 15 18 19 YHFSH (Escherichia coli, UniProt P23836) | Sort-seq, item: YFP reporter | E. coli | PhoQ-PhoP variant library, with: 10 µM Mg2+ | relative to: high Mg2+ state, higher = stronger signaling | fold induction | 14.7
